Measured values from different studies.
Lines come from different studies, so protocols differ.
Target: Phosphatidylinositol 4-phosphate 5-kinase type-1 gamma (PIP5K1C, Homo sapiens, UniProt O60331)
Chain of UniProt O60331 (whole entry, looked up): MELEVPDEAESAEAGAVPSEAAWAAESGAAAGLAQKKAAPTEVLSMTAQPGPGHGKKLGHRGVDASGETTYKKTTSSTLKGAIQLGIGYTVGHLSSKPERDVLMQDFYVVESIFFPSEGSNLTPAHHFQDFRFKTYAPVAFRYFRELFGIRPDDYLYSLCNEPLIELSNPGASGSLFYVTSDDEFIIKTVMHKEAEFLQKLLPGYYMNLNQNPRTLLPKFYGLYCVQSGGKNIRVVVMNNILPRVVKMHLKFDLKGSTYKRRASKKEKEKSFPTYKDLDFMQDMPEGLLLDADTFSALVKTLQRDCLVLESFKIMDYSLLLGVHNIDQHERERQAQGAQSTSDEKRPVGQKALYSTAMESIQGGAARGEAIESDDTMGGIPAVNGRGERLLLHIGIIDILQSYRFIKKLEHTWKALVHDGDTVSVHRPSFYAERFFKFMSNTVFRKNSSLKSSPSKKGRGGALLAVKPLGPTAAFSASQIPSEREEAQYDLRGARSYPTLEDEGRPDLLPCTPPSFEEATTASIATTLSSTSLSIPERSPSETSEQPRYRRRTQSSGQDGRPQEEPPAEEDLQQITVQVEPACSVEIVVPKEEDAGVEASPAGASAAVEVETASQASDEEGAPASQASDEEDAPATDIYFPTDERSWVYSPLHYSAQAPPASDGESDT

For Cc1nc(NC(=O)N2CCC[C@H]2C(N)=O)sc1-c1ccnc(C(C)(C)C(F)(F)F)c1, the remaining binding was 100% (KINOMEscan; 10 µM).
O=C(NC1CCC1)c1ccc2nc(-c3cccc(NS(=O)(=O)NCCN4CCCCC4)c3)cn2c1 has a remaining activity of 51% (enzyme activity; 10 µM).
For C[C@@H](c1ccc(-n2cnc3c(N)ncnc32)cc1)N1CCc2nn(C)c(Cc3ccccc3)c2C1=O, the remaining binding was 78% (KINOMEscan; 0.1 µM; relative to: DMSO control).
The remaining binding of Nc1ncc2c(n1)-c1c([nH]c3ccc(-c4ccc(F)cc4)cc13)CCC2 is reported as 0% (DiscoverX scanMAX; 1 µM; relative to: untreated control).
For CC(C)C(=O)Nc1n[nH]c2cc(-c3cccc(NS(=O)(=O)C4CC4)c3)ccc12, the ADP produced was 2.86 µM (ADP-Glo; 13.7 nM, with: 10 µM ATP).
COc1cc(F)ccc1-c1ncnc(Nc2cccc(C[S@](C)(=N)=O)c2)n1 gave a remaining activity of 101% (kinase activity; 10 µM, with: 10 µM ATP).
C=CC(=O)N1CCC(COCC(=O)N2CCN(c3nc(-c4cnc(N)nc4C(F)F)nc(N4CCOC[C@@H]4C)n3)CC2)CC1 has a remaining binding of 95% (KINOMEscan; 1 µM; relative to: DMSO control).
C1=C/COCc2cc(ccc2OCCN2CCCC2)Nc2nccc(n2)-c2cccc(c2)COC/1: “percent of control” 60% (concentration not given).
CC(=O)Nc1nc(C)c(-c2ccc(Cl)c(S(=O)(=O)NCCO)c2)s1 has a Hill slope of -1.44 (kinase activity, ADP-Glo).
